Measured values gathered from unrelated publications.
Compare with care: the assays were run in different laboratories. Values joined by “and” are separate records of one study, mostly repeats; a detail may differ. Numbers after ± are the reported error.
topA: DNA topoisomerase 1 (topA, Escherichia coli, UniProt P06612)
Chain of UniProt P06612 (whole entry, looked up): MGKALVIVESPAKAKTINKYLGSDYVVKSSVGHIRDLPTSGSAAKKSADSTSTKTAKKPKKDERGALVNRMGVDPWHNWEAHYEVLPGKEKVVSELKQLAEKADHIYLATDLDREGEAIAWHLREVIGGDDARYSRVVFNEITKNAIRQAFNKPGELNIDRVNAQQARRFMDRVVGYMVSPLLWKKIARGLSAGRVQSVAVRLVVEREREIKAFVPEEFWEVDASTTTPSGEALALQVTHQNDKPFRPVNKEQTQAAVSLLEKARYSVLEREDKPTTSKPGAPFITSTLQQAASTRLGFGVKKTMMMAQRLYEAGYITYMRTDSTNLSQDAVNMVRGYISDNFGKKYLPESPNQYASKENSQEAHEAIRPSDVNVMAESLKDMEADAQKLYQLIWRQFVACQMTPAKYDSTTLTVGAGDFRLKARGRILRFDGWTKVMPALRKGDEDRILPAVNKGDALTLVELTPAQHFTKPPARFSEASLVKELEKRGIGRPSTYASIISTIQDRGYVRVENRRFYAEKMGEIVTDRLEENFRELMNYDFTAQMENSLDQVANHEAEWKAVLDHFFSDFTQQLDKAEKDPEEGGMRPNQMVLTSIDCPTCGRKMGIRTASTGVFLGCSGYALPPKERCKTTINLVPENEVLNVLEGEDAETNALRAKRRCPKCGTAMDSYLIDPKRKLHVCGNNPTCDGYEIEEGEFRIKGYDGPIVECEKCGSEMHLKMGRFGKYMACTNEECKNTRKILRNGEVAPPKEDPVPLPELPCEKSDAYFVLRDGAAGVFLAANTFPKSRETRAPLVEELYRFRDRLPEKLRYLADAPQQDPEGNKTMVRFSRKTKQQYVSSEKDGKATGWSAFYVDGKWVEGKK
Genome polyprotein NS2B-NS3 protease: Genome polyprotein, NS2B-NS3 protease (ZIKV, UniProt A0A024B7W1)
Chain of UniProt A0A024B7W1 (whole entry, looked up): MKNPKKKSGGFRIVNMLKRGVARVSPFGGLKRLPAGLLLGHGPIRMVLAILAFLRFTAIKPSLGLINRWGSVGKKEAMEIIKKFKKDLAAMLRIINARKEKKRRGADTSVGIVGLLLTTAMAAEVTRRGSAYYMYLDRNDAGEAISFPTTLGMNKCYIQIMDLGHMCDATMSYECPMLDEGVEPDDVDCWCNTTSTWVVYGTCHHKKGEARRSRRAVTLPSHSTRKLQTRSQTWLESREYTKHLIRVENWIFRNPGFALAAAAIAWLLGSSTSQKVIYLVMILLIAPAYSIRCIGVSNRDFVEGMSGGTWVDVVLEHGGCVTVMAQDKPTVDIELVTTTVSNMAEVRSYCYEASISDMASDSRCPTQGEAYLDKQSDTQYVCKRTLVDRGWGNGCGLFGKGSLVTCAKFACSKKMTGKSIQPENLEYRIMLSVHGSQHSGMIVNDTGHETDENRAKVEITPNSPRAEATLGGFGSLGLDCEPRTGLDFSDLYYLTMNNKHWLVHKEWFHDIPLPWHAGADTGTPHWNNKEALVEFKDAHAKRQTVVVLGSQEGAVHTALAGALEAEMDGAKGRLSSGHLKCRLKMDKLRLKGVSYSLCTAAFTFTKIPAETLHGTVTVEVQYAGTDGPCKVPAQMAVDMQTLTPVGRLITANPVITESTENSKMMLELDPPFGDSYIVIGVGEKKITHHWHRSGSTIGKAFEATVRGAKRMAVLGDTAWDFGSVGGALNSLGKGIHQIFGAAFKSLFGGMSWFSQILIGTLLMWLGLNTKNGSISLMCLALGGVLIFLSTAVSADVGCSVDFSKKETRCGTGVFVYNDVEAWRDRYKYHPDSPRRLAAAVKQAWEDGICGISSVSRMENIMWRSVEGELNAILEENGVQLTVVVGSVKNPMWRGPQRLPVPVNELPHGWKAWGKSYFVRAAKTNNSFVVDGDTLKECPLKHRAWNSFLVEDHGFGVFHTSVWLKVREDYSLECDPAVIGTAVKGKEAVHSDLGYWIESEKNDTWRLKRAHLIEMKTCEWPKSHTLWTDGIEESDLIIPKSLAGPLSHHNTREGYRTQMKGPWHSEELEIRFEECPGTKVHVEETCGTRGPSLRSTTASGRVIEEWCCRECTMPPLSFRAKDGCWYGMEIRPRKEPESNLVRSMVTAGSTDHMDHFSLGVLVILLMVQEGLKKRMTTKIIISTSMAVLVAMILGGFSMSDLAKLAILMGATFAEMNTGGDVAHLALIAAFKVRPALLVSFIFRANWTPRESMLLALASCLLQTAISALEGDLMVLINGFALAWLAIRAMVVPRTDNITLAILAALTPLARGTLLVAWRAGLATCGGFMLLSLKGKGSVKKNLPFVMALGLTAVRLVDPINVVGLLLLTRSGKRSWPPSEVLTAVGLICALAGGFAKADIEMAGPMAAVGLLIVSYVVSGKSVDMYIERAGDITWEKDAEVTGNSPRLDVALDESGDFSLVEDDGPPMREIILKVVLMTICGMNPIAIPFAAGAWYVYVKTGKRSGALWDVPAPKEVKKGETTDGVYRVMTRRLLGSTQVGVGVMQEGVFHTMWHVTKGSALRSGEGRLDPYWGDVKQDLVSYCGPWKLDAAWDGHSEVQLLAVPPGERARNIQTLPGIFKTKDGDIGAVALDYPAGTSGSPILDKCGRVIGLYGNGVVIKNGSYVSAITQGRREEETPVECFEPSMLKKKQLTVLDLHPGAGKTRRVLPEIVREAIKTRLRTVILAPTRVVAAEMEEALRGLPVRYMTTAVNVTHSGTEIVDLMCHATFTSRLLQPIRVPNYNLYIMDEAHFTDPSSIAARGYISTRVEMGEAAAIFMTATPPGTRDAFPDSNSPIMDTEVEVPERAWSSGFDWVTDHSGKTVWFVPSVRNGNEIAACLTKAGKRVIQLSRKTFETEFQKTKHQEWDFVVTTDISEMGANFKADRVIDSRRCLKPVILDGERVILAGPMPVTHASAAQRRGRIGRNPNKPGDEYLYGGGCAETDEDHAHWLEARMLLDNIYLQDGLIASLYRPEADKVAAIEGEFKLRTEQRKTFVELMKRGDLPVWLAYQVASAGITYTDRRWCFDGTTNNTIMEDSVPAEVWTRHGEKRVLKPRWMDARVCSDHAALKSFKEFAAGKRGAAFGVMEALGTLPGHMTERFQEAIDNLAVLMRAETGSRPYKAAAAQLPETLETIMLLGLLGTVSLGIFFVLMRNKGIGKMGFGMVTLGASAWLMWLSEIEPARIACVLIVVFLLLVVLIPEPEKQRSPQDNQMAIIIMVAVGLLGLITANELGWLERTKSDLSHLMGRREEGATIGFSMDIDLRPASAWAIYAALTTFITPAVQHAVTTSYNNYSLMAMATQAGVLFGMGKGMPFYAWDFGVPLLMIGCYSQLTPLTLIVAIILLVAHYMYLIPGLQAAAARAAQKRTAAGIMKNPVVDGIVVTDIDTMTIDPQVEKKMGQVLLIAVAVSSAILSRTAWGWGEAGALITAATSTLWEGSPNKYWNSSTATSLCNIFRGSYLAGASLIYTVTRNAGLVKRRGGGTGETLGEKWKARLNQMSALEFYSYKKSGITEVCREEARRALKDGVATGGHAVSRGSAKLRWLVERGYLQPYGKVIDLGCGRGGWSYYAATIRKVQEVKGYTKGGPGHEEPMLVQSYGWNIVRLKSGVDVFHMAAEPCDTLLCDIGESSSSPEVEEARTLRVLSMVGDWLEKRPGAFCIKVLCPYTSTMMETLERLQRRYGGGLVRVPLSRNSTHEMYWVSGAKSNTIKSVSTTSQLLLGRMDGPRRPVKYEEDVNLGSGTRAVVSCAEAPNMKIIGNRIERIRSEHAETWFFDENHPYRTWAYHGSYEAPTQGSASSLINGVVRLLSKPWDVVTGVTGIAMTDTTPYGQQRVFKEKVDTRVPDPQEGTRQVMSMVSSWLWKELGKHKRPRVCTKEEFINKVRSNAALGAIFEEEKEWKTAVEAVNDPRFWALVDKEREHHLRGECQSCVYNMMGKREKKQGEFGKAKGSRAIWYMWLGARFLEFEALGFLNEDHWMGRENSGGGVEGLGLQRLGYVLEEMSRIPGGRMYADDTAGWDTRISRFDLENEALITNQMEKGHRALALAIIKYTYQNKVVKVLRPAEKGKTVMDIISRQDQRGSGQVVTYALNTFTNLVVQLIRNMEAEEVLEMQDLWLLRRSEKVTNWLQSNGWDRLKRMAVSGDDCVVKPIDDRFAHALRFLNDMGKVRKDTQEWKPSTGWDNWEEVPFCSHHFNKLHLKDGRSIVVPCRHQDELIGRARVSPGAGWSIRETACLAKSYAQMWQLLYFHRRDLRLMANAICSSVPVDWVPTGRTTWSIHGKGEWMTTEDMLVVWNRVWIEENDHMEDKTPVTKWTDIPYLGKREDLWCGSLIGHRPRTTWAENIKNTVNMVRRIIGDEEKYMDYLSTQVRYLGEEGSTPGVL
Chain of UniProt P28074 (whole entry, looked up): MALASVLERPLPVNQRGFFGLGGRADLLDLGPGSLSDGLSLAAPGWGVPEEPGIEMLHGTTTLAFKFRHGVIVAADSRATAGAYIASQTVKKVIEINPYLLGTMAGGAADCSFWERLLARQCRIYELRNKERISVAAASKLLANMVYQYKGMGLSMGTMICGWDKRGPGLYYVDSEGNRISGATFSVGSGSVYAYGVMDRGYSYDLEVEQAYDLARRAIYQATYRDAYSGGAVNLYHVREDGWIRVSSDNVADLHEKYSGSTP
Chain of UniProt P17538 (whole entry, looked up): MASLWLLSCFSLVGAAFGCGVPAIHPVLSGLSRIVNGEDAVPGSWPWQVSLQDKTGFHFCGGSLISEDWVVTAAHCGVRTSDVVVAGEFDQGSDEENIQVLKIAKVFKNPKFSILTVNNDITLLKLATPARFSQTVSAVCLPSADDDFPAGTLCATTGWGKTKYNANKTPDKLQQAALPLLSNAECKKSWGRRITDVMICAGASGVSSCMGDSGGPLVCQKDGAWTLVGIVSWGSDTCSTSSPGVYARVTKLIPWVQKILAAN
Chain of UniProt Q6NS38 (whole entry, looked up): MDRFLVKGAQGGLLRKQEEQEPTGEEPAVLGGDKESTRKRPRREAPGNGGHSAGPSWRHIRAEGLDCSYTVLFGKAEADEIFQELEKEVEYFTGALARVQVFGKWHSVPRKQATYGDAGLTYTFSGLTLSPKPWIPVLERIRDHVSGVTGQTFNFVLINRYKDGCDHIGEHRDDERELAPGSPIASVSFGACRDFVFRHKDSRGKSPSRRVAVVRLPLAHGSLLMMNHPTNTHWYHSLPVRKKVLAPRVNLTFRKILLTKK

Phoxim oxon — IC50 (Carboxylesterase 1C (Ces1c, Rattus norvegicus, UniProt P10959); enzyme activity, inhibitor; rat, postnatal day 12, serum; added: p-nitrophenyl valerate): 0.0009 µM
O=C1NC(=S)N(c2ccc(F)cc2)C(=O)/C1=C/c1ccco1 — IC50 (Cell death protein 3 (ced-3, Caenorhabditis elegans, UniProt P42573); enzyme activity, inhibitor; crude E. coli lysate; added: 20 µM Ac-DEVD-AMC): 11.1 µM
C/C=C1\NC(=O)[C@@H](NC(=O)[C@@H](NC(=O)[C@H](C)NC(=O)C/C(C)=C/Cl)C(C)C)[C@@H](C)OC(=O)[C@H](C(C)C)NC(=O)[C@H](Cc2ccc(O)cc2)N(C)C(=O)[C@H](Cc2ccccc2)N2C(=O)[C@H](CC[C@H]2O)NC1=O — IC50 (Chymotrypsinogen B (Homo sapiens, UniProt P17538); enzyme activity, inhibitor, fluorescence; pH 7.4): 0.577 µM
CCCCC/C=C\C/C=C\C/C=C\C/C=C\CCCCN1C(=O)C=CC1=O — IC50 (MGLL (Homo sapiens, UniProt Q99685, C242A); enzyme activity, inhibitor; added: AHMMCE substrate): 6.4 µM
CSCC[C@H](N)C(=O)N[C@@H](CC(=O)O)C(=O)N[C@@H](CCC(=O)O)C(=O)N[C@@H](CC(C)C)C(=O)N[C@@H](Cc1ccc(O)cc1)C(=O)N[C@@H](CCCCN)C(=O)N[C@@H](C)C(=O)N[C@@H](C)C(=O)N[C@@H](C)C(=O)N[C@@H](C)C(=O)N[C@@H](C)C(=O)N[C@@H](C)C(=O)O — IC50 (RING finger and CHY zinc finger domain-containing protein 1, residues 1-195 (RCHY1, Homo sapiens, UniProt Q96PM5); Pirh2 binding, AlphaScreen competition): 0.09 to 0.12 µM
CCOC(=O)c1cn2c3c(c(F)c(F)cc3c1=O)Oc1cc(C(F)(F)F)ccc1-2 — IC50 (topA): > 125 µM
DHQAAFQYI — IC50 (Mane-A1*082:01, Macaca nemestrina; binding, competitor, radioligand competition; peptide; added: radiolabelled probe): 0.0082 µM
CC(C)c1ccc(-c2nc(OCC3CCNCC3)cnc2-c2ccc(CN)cc2)cc1 — IC50 (Genome polyprotein NS2B-NS3 protease; inhibitor; Zika virus): 2 µM and 2.02 µM
O=C1C2CC=CCC2C(=O)N1c1n[nH]c(Cc2ccccc2)n1 (stereo not drawn) — IC50 (ALPL (Homo sapiens, UniProt P05186); enzyme activity, inhibitor, luminescence; added: 300 µM CDP-star, 100 mM DEA): 0.346 ± 0.007 µM
CCN(CC)C(C)CN1c2ccccc2Sc2ccccc21 (stereo not drawn) — IC50 (Dugesia japonica cholinesterase; enzyme activity; planarian homogenate; 5 min, added: butyrylthiocholine 1 mM): 220 ± 0.007 µM
CC(C)[C@H](NC(=O)N[C@H](C(=O)N[C@H]1/C=C/CCNC(=O)/C=C/[C@H](C(C)C)NC1=O)C(C)C)C(=O)O — IC50 (PSMB5 (Homo sapiens, UniProt P28074); active site labelling, inhibitor, probe competition gel; HEK-293T cell lysate; 1 h, 37 °C, added: activity-based probe 0.5 µM): 1.3 µM
O=C(NC1CCCc2ccccc21)c1ccc(-c2ccccc2)cc1 (stereo not drawn) — IC50 (TRPM8 (Homo sapiens, UniProt Q7Z2W7); calcium signal, antagonist, fluorescence): 55 µM
NCc1ccc(-c2ncc(OCC3CCNCC3)nc2-c2cccc(C3CCOC3)c2)cc1 (stereo not drawn) — IC50 (Genome polyprotein NS2B-NS3 protease; inhibitor; Zika virus): > 10 µM
O=C1NC(=S)NC(=O)C1=Cc1cn(Cc2cccc3ccccc23)c2ccc(Cl)cc12 — IC50 (DNA polymerase eta (POLH, Homo sapiens, UniProt Q9Y253); enzyme activity, inhibitor, fluorescence): 11 µM
COc1cc(/C=C(\C#N)C(=O)Nc2nnc(C(F)(F)F)s2)ccc1OCc1ccc(C(F)(F)F)cc1C(F)(F)F — IC50 (PGC-1α/ERRα (human); reporter gene, antagonist, luciferase reporter; 18 h, 2000 cells/well): 3.44 µM
COc1cc(-c2nc3sc(C)c(C)c3c(=O)[nH]2)ccc1O — IC50 (Gag-Pol polyprotein, reverse transcriptase RNase H (gag-pol, Human immunodeficiency virus 1, UniProt P03366); RNase H activity, inhibitor, fluorescent RNA/DNA hybrid): > 50 µM
CC(C)C[C@H](NC(=O)[C@H](C)NC(=O)[C@H](Cc1c[nH]c2ccccc12)NC(=O)[C@H](Cc1c[nH]c2ccccc12)NC(=O)[C@H](C)NC(=O)[C@H](CC(C)C)NC(=O)[C@H](C)N)C(=O)O — IC50 (Transcriptional regulator ComR (Streptococcus mutans serotype c, UniProt Q8DWI6); Streptococcus mutans): 8.9 µM
CCCCCCCCCC1=C(O)C(=O)c2ccccc2C1=O — IC50 (COB/RIP1 (Saccharomyces cerevisiae, UniProt P00163+P08067); enzyme activity, inhibitor; pH 7.0, 23 °C): 0.18 µM
O=S(=O)(O)Oc1ccc(-c2ccc(Cl)cc2)c(Cl)c1 — IC50 (SULT1E1 (Homo sapiens, UniProt P49888); enzyme activity, inhibitor, radiometric; pH 7.4): > 10 µM
CO[C@H]1CC=C2CCN3CCC4=C(CC(=O)OC4)[C@]23C1 — IC50 (KCNK18 (Homo sapiens, UniProt Q7Z418); ion flux, inhibitor): 18.8 µM
O=C1OC2(c3cc(Br)c(O)cc3Oc3cc(O)c(Br)cc32)c2ccccc21 — IC50 (Dual specificity protein phosphatase 5 (Homo sapiens, UniProt Q16690); phosphatase activity; 60 min, without DTT, added: pNPP): 44.7 ± 2.2 µM
NCc1ccc(-c2ncc(OCC3CCNCC3)nc2-c2cc3ccccc3[nH]2)cc1 — IC50 (Genome polyprotein NS2B-NS3 protease; inhibitor; Zika virus): 21.1 µM
(−)-epigallocatechin gallate — IC50 (nuoF (Escherichia coli, UniProt P31979); deamino-NADH oxidase activity, inhibitor; 1100, membrane vesicles; added: deamino-NADH 75 µM): 20 µM
Cc1cc(O)ccc1-c1ccc(-c2ccc(O)cc2C)[se]1 — IC50 (ESR2 (Homo sapiens, UniProt Q92731); antagonist; HEK293T; added: estradiol 10 nM): 0.3 µM
CCCCCCCCCC(=O)CC(=O)Nc1ccccc1 — IC50 (lasR (Pseudomonas aeruginosa, UniProt P25084); reporter gene, antagonist; PAO-JP2; added: OdDHL 100 nM): 11 µM
O=C(O)c1cc(O)c(O)c(O)c1 — IC50 (ALKBH2 (Homo sapiens, UniProt Q6NS38); 3-methylcytosine repair, inhibitor, HPLC; 1 h, 37 °C, added: ssDNA 16mer 5 µM): 38.2 µM
O=C(O)c1ccc(NCc2cc(Cl)cc(Cl)c2O)cc1O — IC50 (topA; enzyme activity, inhibitor): > 250 µM
NC[C@@H]1O[C@H](O[C@H]2[C@@H](O)[C@H](O[C@@H]3[C@@H](O)[C@H](N)C[C@H](N)[C@H]3O[C@H]3O[C@H](CN)[C@@H](O)[C@H](O)[C@H]3N)O[C@@H]2Cn2cc(CCCCc3cn(C[C@H]4O[C@@H](O[C@@H]5[C@@H](O)[C@H](N)C[C@H](N)[C@H]5O[C@H]5O[C@H](CN)[C@@H](O)[C@H](O)[C@H]5N)[C@H](O)[C@@H]4O[C@H]4O[C@@H](CN)[C@@H](O)[C@H](O)[C@H]4N)nn3)nn2)[C@H](N)[C@@H](O)[C@@H]1O — IC50 (HIV-1 TAR RNA; Tat peptide binding, FRET competition; pH 7.4, 25 °C): 0.058 ± 0.006 µM
CNC(=O)OCC[N+](C)(C)C — IC50 (Neuronal acetylcholine receptor subunit alpha-4/beta-2 (Mus musculus, UniProt O70174+Q9ERK7); receptor desensitisation; mouse thalamic synaptosomes; high ACh-sensitivity component): 0.0786 ± 0.0178 µM
[Br-].[Na+] — IC50 (OXA-48 (Klebsiella pneumoniae, UniProt Q6XEC0); enzyme activity, inhibitor; pH 7.2, with preincubation): 35000 µM
OC(c1cc(C(F)(F)F)nc2c(C(F)(F)F)cccc12)C1CCCCN1 (stereo not drawn) — IC50 (Beta-glucuronidase (uidA, Escherichia coli, UniProt P05804); enzyme activity, inhibitor): 1.21 µM
COc1ccc(C[C@H](NC(=O)[C@H](C)NC(=O)c2cccc(-c3ccccc3)n2)C(=O)N[C@@H](CC(C)C)C(=O)C(=O)Nc2ccccc2)cc1 — IC50 (Proteasome component C5/PSMB5, chymotrypsin-like site (Homo sapiens, UniProt P20618+P28074); enzyme activity in cells, inhibitor): 0.311 µM
COc1cc2c3c(c4cc(OC)c(OC)cc4c2cc1OC)CN1CCC[C@@H]1C3 — IC50 (Na+/K+-ATPase (pig cerebral cortex); enzyme activity, inhibitor, phosphate release colorimetric; 30 min, 37 °C, added: ATP-Mg 3 mM): > 500 µM
